Assay results of several laboratories.
Parts stem from different laboratories: compare values within a part only. Substitutions count along the parent as printed.

Set 1
Target: RNA binding protein fox-1 homolog 2, RRM domain, GST-SBP tag (RBFOX2, Homo sapiens, UniProt O43251-10, residues 100-194)
Technique: RNA Bind-n-Seq
Form: RNA
Sample: in vitro
Concentration: 365 nM
Notes: natural RNA segment, single round, ends assumed
Relative to: no-protein control
Direction: higher = stronger binding
All sequences stand within: GGGAGUUCUACAGUCCGACGAUC … UGGAAUUCUCGGGUGCCAA
Construct (chain): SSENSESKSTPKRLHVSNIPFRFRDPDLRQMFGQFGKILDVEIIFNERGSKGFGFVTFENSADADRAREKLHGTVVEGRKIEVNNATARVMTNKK
Oligonucleotide | RBNS enrichment (R)
UGUGGGUUGGGUUCGUACCAGCAAGUAGACUAGGAACUGAGCCCAGGAAAGGGGGAUGUUUUCCUGGUGUUUGGAUGGUCAGCUGGGAGUGUCCAUCAUCAGGGGAAGAU | 0.716
CAAAGGGCAACUGGCCUUCUGACCCACUAGAGCCUUGCAAAGAGUUGGCAGUCAGGGGGGUGUCAUACAUGAUUCUUGCCUUUUCCUUUGCUUGAUGUCUAUACUGGAUC | 1.07
UUGAAUGGCUGCCGUUUUUUCAAAGCAAUAUGAAUUUGAUGAGUUUGUUUUAUGCCAUUAGGUGGCGCCAGAGGUCAGAACAUGUCUAUUUUGAAUUGGAUCGUUACAAA | 0.601
UUGUAUGUGGAAAUGGAUUAACAUACCCCUUUAUGCCUAAAAAAAAAAUAAAAAAAUAUGUCUUCACAUAUCCCUCAUAGCUGUCUGCCUCUUGUCUGCAAUAGGAUGUU | 0.776
AAUGCCAUCUCAACUGAAAAUACAAAAUUAGCUGGGUGUGGUGGUGCAUGCCUGUAAUCCCAGGUACUCGGGAGGCCAAGGCAGGAGAAUCGCUUGAACCCAGGAGGUGA | 1.47
GUGGAUGUUUAGUGCAGCCACAGACUUGUAUUUUGAUCCCCAAUUUUUUUUUGAAAGAGUUCUCCUCAUAGGAGGAUGAUUCAGCAUCAGAAGAAGAAGGAACCCAUAGC | 0.413
ACUAACUAGGGCUCCAGUCAGUAUUCCCCUGGCCGGCUUCCCAGAUGCCCUGGACGGCACUCUGUUCCUUAAAGUCCAGUUCCACCCUGACGUCCACAGAGGCAGCACGG | 0.34
UGUUUCUUCCUGUGACUGUAGAGACAGUUCUAGACCUUUGUGAUAGAACUAAAAUGCUCUCUGUACUCUAGUCUCCUGCCUCCUCAGCUCUGCAAGUAGUUUAGUAGGAA | 0.833
AUUCUUGGAAAAGCAGCUCCAGUUGGUUUUUCAACUGUCAAACUUGAAUGUGUAAGUCCCCACAGAGCAUGGACAGUCGGUGCAGAGUUCCAAGGAAACAAUUAUUGCCU | 0.574
CUGUUCCCAGGAUCACGAGAAACAAGCUCUCCUGAGCUGCUAGAACCCUGCCUGACCUCCUUUGCAGUCAUCAUCUGUCUUUUCUUGGCGUGGGUGCUCACCUCACUUAU | 0.553
UGUGACUGGUAUUUUCUCAUGAUGAAUCCUCUCAGGACAUGGCAGAGCUUGGCGAGUACAAAGGGAGAGGAAGACAUUUGAACUUUAGAACUUUGUUUCAGCGUGACUCU | 0.816
AGGAGAGACCUUAUUCCAAAGCACGAUUGCAGAAGGGGAAAGGGAAUAUUGCAAAAGGGAGAGGAAGGGGCCUUAUGGGAAUAGUGAAAAGGCUCAGACCGACCGAUGGC | 1.82

Set 2
Target: Interferon regulatory factor 7, full length, phosphomimetic (IRF7, Homo sapiens, UniProt Q92985, residues 1-503, S471D/S472D/S475D/S476D/S477D/S483D/S484D/S487D)
Technique: protein-binding microarray
Form: double-stranded DNA, one strand shown
Sample: in vitro
Concentration: 2200 nM top
Notes: 60-bp whole probe
With: salmon DNA 0.4 mg/ml
Relative to: random background probes
Direction: higher = stronger binding
All sequences stand within: GCCTAGCAC … GTCTTGATTCGCTTGACGCTGCTG
Construct (chain): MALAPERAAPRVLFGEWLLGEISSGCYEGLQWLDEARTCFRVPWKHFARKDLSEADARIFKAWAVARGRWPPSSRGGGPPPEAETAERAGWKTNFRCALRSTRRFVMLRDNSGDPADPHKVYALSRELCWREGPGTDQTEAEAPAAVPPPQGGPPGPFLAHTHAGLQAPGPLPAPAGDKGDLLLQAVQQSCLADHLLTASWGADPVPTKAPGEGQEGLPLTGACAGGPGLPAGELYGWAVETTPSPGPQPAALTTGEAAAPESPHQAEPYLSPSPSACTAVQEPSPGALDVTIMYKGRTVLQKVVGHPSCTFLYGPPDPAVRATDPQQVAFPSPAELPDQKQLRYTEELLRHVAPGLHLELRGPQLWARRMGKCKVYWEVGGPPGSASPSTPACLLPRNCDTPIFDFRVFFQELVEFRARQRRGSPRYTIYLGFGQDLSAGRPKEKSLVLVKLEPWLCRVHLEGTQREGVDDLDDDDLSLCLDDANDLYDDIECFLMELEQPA
Oligonucleotide | fitted relative affinity
TTAGAACTGGGGTATCGATTTGTGCTA | 0.601 z-score
TACGATCTCAGACTGGAGACGTGCTAG | 0.0153 z-score
GACTGTATCGACTATCGGGACGTGCTA | 0.359 z-score
TCGTGGATTGCGACCCCTAGGTGCTAG | 0.125 z-score
TCAAATTTACTTTGGTTACTGTGCTAG | 0.297 z-score
TTAGAACCGAGACTGGATTAGTGCTAG | -0.279 z-score
TCATCTCTGGGTCGGGCACTGTGCTAG | 0.304 z-score
GACGGACTGAACTTTCGGGACGTGCTA | 2.9 z-score
TTAGGACTGAGGTTTCGGTTAGTGCTA | 3.81 z-score
TTAGGATTCGGTCTCGGTTAGTGCTAG | 1.63 z-score
TACGGTCTCCTTCTCCTGACGTGCTAG | 1.39 z-score
GACGATAGCAGACTGGAGACGTGCTAG | -0.234 z-score
GACGCACTGGACTTTCGGGACGTGCTA | 2.34 z-score
TGCTTTCCAATTCTCTTTTCGTGCTAG | 5.21 z-score
TTAGATTCCAGTTTCGATTAGTGCTAG | 6.9 z-score
GAAGGTTTCGGTTTCGGGACGTGCTAG | 15.2 z-score
GACGAAGTGAGACTGGAGACGTGCTAG | -0.351 z-score
GACGGTCTCCTTATCCTTACGTGCTAG | 1.4 z-score
GACGGTATCGAGTATCGGGACGTGCTA | 0.0538 z-score
TCAGTTTTACAGGTTCTCACTGTGCTA | 1.25 z-score
TCAACTTTAAATTAGACACTGTGCTAG | -0.456 z-score
TTAGGACTGGACACTGGGCTAGTGCTA | -0.952 z-score
TTAGGACCGGGGACTGGGTTAGTGCTA | -1.01 z-score
TTAGGTTTCCTTTCCCTTTAGTGCTAG | 5.11 z-score

Set 3
Target: CCNB1, cyclin fold, Cln2 fusion (human)
Technique: yeast growth competition, sequencing
Sample: yeast
Notes: strong parent motif
Relative to: not given
Direction: higher = stronger binding
Starting sequence: PKN2 docking peptide (human); VSAVQKLDFSDTM; partner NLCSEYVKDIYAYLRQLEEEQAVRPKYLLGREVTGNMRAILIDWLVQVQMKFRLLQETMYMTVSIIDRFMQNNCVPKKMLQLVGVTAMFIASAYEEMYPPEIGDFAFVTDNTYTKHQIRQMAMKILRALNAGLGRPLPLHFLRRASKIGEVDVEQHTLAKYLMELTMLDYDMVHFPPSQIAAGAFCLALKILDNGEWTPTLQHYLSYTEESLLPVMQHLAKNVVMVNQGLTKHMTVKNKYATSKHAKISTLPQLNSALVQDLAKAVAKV
Variant | normalised enrichment score
VSDVQKLDFSDTM [A3D] | -0.549
VSAVQKKDFSDTM [L7K] | -0.0622
MSAVQKLDFSDTM [V1M] | 2.64
VSTVQKLDFSDTM [A3T] | 1.2
VSAVQLLDFSDTM [K6L] | 0.115
VSYVQKLDFSDTM [A3Y] | 1.36
VSAVQKLDFSDYM [T12Y] | 2.27
VMAVQKLDFSDTM [S2M] | 2.16
VSAVQKVDFSDTM [L7V] | -0.171
VSAVQKLDFSDLM [T12L] | 1.97
VSAVQKLDRSDTM [F9R] | 0.611
GSAVQKLDFSDTM [V1G] | 2.33
VSAVQKLDFSCTM [D11C] | 1.73
VSAVQKLDFVDTM [S10V] | 1.69
VSAVQKLFFSDTM [D8F] | 0.993
VSAVQKADFSDTM [L7A] | 0.308
VSAVQYLDFSDTM [K6Y] | 1.04
VSAEQKLDFSDTM [V4E] | 0.341
VSAVQKLDFMDTM [S10M] | 1.16
VSAWQKLDFSDTM [V4W] | 0.344
VSAVQALDFSDTM [K6A] | 1.06
VSAGQKLDFSDTM [V4G] | -0.763
VSFVQKLDFSDTM [A3F] | 1.03

Set 4
Target: RING finger protein unkempt homolog, zinc fingers 1-6, SBP tag (UNK, Homo sapiens, UniProt Q9C0B0, residues 30-357)
UniProt Q9C0B0, sequence (30-357, looked up): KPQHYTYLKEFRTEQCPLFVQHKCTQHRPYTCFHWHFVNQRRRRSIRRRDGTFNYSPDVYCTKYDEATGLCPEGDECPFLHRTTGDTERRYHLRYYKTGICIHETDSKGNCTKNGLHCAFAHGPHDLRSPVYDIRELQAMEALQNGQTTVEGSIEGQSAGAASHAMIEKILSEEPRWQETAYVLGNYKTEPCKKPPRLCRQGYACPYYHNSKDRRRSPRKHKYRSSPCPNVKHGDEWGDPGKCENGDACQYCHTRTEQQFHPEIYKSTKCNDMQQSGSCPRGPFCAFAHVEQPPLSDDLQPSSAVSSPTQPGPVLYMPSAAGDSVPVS
Technique: RNA Bind-n-Seq
Form: RNA
Sample: in vitro
Concentration: 100 nM
Notes: RNA with constant flanks, vertebrate orthologous sites, ends assumed
Relative to: input RNA pool
Direction: higher = stronger binding
All sequences stand within: GGGAGUUCUACAGUCCGACGAUC … CAACAGAGGAUUGAGCAUCA
Oligonucleotide | bound/input enrichment [ratio]
CCUCUUAAUCCCAUCUCUUCAGUUUCAUAGAACUGCAGUAUUACCUUCAAUUGUAUCUUUGGUGGACUUAUUUUUAAUUCUAGGGAAACUUCCAGUGUGGAUACUGUGAGCUAGAUGGAG | 0.732
AUCCCUCAGUGACAGUAUGCCGUCUGUAGCAGAUUCCCACUCGAGUCACUUUUCUGAAUUUAGUUGUUCUGACCUAGAAAGCAUGAAAACUUCUUGUAGUCAUGGUUCCACUGAUUAUCA | 0.484
CAGUCCCCUGGGCUGGGACAGAUUUUUUUUUAACGUCUUGAAACUUAAAUUCUGUGCUUGUAGGAGACUGUAACCUUUUUGUCUUUUUUUUUUUUUUUACACGAAACAACCUCCACCUCC | 0.771
GCUGUUAAUGCACUGUAUUCCAGGCAUCGUCUGAUUUUUAGUGUAAUCUAGGAGAUUUUAUAAUUUUAUUUUAAUGAAGUAUGGAUUGAUGCAAAGUUGUUAGCAGUCUGUAGUCUUUUA | 1.1
CCCUCUGAACCCCAUAUCUUCUGUUUCAUAGUGCAGAAGUAUUCUUUUCAAUUGUAUUAUUAGUGGACUUGACUAAUUCUAGGAAAACUUUGAGUACAGAUACUGUGAGCUUACAUGGAA | 1.14
UGGGUUACUCCUAUUAUUAUCAAGUAGCUGGAAUUGUGAAGGUUGGAGUAGUUAGAUCUUUAGCUUUUAUUCCUUAUUUUUUUUUUUGUAUUACUCUCCAUGUGUAUAAAUUAUUGAUCA | 5.44
UUCACUGAGUGACAGUAUACCUUCAGUGGCUGAUUCACACUCAAGCCAUUUUUCAGAGUUCAGUUCGGAUAUGGAGAGUAUGAAGACAUCCUGCAGCCAUGGUUCUAGUGACUACCACGC | 0.263
CUGUUGUGUGAAACAUGUCUACCUGGGAAAGUAACACACUAUAAAUACUGUUAAACAAUUUAGCUAUAUUAUUUUAAAAUAUUGUAUGUCUAGCGGUUAAAAUGAAUUUCAGAGUAAAAG | 0.54
AUCCUUUCGCACUGUCCCCGGCCAGGGUCGAGGACCAGACGUUUCACUGAGGACCUGCAUUUCAAAUAAUUUUUUUUAAGUUGUUGUAUAGGAAGAGAUGUGCCAAAAACUGCAUCUCAU | 0.502
GGGGGGUGACAGCUGGCCAGGCCUUUCUGCCUACAAUGACAACAGUCCUAGAUCUCACCAGAGUCCAUCUCCUGUUCCCACCCCCACCAGCCACAGUUCCUCUCGCUCUGAUGUCGCUCU | 1.47
AUUCAUCUCAUUUUAUAUGUCCAAAAUGGCCUUGAAUUUUUAAACAAUUGUAGUUUUAAUUAGAUCUGCCCUUAUGAAGUAUUAUCAGUUCAUCACAGAUAUCUGUCUGAAUUACUUCAG | 0.481

Set 5
Target: ABI1, truncated, D143A, DHFR fusion (Arabidopsis thaliana)
Technique: DHFR PCA, deep sequencing
Sample: yeast
Notes: methotrexate growth selection, single substitutions
With: (+)-ABA 0.032 µM
Relative to: wild-type fitted maximum
Direction: higher = stronger binding
Starting sequence: PYL1, truncated, DHFR fusion (Arabidopsis thaliana); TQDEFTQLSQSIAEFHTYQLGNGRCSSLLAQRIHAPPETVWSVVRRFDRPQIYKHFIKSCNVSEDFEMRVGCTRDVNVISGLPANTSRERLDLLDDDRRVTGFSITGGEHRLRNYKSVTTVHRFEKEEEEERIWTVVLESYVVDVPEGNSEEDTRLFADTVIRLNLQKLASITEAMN; partner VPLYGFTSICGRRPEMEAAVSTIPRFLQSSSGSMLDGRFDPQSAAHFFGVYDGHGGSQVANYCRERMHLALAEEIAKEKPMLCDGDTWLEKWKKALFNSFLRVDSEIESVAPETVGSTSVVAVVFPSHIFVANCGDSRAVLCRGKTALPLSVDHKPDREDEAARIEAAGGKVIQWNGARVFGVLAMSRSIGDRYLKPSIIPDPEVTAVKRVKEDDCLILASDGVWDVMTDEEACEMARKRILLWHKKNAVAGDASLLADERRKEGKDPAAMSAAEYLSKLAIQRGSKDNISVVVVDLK
Variant | relative binding score [%]
Y141Q | -2.21
R46K | 3.11
N22H | 40.2
T73H | 19.5
D3E | 39.8
I79E | 12.7
F15M | 1.61
S87F | 32.7
V62M | -0.158
V100A | 25.5
I172Y | -6.9
S150P | 5.26
V76Q | -7.37
S171R | 39.9

A few entries again (set 3):
Variant | normalised enrichment score
VSAVQKLDFSDLM [T12L] | 1.97
VSAVQKLDRSDTM [F9R] | 0.611
VSAWQKLDFSDTM [V4W] | 0.344
GSAVQKLDFSDTM [V1G] | 2.33
VSAVQKLFFSDTM [D8F] | 0.993
VMAVQKLDFSDTM [S2M] | 2.16
VSTVQKLDFSDTM [A3T] | 1.2
VSAVQLLDFSDTM [K6L] | 0.115
